# Measurements gathered from unrelated publications.
# Numbers after ± are the reported error.
# Cell line: HEK-293T
Structure (SMILES),test,setting,how to read,quantity,result
O=c1[nH]nc(OCCCc2ccc(Cl)cc2)c(NCc2cccnc2)c1Br,"RNA-seq GSEA, refers to: HALLMARK_KRAS_SIGNALING_UP",concentration not given,direction not given,normalized enrichment score,-0.975
C=C1C[C@](OC)([C@H](OCOC/C=C/B2OC(CC)(CC)C(CC)(CC)O2)C(=O)NC[C@@H]2C[C@@H](OC)C(C)(C)[C@@H](C[C@@H](COC)OC)O2)O[C@H](C)[C@@H]1C,"cell viability, sulforhodamine B","48 h, 37 °C, without H2O2",,IC50,405 ± 72 nM
Cc1cc(C)nc(SCC(=O)Nc2ncc(Cc3cccc(OCc4cn(Cc5ccccc5C)nn4)c3)s2)n1,"cell viability, MTS",10 µM,,inhibition,18.4 ± 2.9%
O=C(Nc1ccc(-c2ccccc2)cc1)c1cnn(-c2ccc([N+](=O)[O-])cc2)c1C(F)(F)F,"cell viability, MTS","50 µM, 72 h",,inhibition,13.3 ± 2%
COCCn1cc(COc2cccc(Cc3cnc(NC(=O)CSc4nc(-c5ccccc5)cc(-c5ccccc5)n4)s3)c2)nn1,"cell viability, MTS",10 µM,,inhibition,11.6 ± 1.6%
CCc1cnc(N2CCC(c3nc(COc4ccc(-n5cnnn5)cc4)cs3)CC2)nc1,"RNA-seq GSEA, refers to: HALLMARK_E2F_TARGETS",concentration not given,direction not given,normalized enrichment score,-1.54
CCCCCCCCCCCCCCCC(=O)N[C@@H](CC(=O)O)C(=O)N[C@H]1CNC(=O)[C@@H]2CCCN2C(=O)[C@H]([C@@H](C)CC)NC(=O)[C@@H]([C@@H](C)O)NC(=O)CNC(=O)[C@H](CC(=O)O)NC(=O)CNC(=O)[C@H](CC(=O)O)NC(=O)CNC(=O)[C@H]2CCCCN2C1=O,"cytotoxicity, MTT",,,IC50,49 µg/mL
COc1cc(NC(=O)c2cnn(-c3ccc([N+](=O)[O-])cc3)c2C(F)(F)F)cc(OC)c1,"cell viability, MTS","50 µM, 72 h",,inhibition,7.79 ± 0.81%
C=C(C)C(=O)[O-].[Na+],TMT mass spectrometry,"20 mM, 24 h, ratio cutoff 1.2",,methacrylated protein count,254
CC(C)Cc1ccc([C@@H](C)[C@H](O)CC(C)C)cc1 (racemic),,"250 µM, 48 h",,cells killed,95%

# A few entries again:
Structure (SMILES),test,setting,how to read,quantity,result
CCc1cnc(N2CCC(c3nc(COc4ccc(-n5cnnn5)cc4)cs3)CC2)nc1,"RNA-seq GSEA, refers to: HALLMARK_E2F_TARGETS",concentration not given,direction not given,normalized enrichment score,-1.54
